Published values pooled from the literature.
Parts stem from different laboratories: compare values within a part only.
Chain of UniProt O15294 (whole entry, looked up): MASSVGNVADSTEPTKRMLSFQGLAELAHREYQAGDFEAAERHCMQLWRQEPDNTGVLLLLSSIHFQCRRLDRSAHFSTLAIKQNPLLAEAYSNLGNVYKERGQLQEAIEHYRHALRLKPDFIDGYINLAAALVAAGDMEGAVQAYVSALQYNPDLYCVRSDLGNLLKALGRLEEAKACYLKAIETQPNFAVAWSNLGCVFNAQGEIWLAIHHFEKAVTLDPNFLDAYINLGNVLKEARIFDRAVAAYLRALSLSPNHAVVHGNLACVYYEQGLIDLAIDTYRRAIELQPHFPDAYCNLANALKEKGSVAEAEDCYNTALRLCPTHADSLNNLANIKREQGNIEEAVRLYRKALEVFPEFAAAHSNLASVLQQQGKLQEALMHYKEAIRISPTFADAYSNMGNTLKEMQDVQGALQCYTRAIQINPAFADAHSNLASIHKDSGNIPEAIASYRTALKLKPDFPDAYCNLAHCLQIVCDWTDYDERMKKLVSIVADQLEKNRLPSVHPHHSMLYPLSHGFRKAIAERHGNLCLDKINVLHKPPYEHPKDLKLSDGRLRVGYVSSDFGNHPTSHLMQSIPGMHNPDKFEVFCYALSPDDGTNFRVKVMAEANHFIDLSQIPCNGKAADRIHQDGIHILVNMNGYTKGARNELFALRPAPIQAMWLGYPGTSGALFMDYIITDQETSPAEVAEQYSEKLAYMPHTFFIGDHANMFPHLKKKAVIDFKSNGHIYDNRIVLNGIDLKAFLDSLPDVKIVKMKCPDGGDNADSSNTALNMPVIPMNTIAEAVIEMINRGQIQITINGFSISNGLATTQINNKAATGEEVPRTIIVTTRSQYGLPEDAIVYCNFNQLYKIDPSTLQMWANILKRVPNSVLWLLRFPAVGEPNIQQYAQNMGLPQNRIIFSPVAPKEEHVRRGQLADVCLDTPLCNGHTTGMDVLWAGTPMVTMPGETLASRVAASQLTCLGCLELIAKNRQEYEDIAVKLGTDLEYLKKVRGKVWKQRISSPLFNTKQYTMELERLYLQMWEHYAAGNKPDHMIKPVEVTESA

Series 1
Target: RING finger protein unkempt homolog, zinc fingers 1-6, GST-SBP tag (UNK, Homo sapiens, UniProt Q9C0B0, residues 30-357)
Chain of UniProt Q9C0B0 (30-357, looked up): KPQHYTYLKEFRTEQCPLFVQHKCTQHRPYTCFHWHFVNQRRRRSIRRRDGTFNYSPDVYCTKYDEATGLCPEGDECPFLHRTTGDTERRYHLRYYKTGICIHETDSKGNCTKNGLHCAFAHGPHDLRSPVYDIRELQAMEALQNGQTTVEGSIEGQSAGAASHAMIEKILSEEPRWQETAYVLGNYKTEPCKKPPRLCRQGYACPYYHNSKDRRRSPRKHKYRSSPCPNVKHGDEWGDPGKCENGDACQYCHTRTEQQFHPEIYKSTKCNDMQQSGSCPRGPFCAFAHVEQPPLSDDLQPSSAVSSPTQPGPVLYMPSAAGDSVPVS
Method: RNA Bind-n-Seq
Molecule type: RNA
Medium: in vitro
Tested at: not given
Notes: RNA with constant flanks, human-mouse chimeric sites, ends assumed
Baseline: input RNA pool
Reading: higher = stronger binding
Measurement: bound/input enrichment
Constant ends, left off below: GGGAGUUCUACAGUCCGACGAUC … CAACAGAGGAUUGAGCAUCA
UCUGGUCACACUCGUGUGUAUGGUGUUUGCUUUGUGGACACUUCACUGGGCAAGUUUUUCAUCGGCCAGUUUUCAGAUGAUCGCCAUUGUUCCAGAUUUAGGACGCUAGUGGCUCACUAU: 0.29 ratio
UCUUUGUGUAACUUAUCUCUGUAAAAGUCCCCCCCCCUACUGUCAAAAAAUAUGCAUGUAUAGUAAUUAGGACUUCAUUCCUCCAUGUUUUCUUCCCUUAUCUUACUGUCAUUGUCCUUA: 2.11 ratio
CUGUGACCACAAGAUCCUACCUGAGUGGCAGCUGAAGUUGACUCCCUCUCCUUGCCUGAACCCCCCCCCACUGCCCCCCCAUCCCCCGCAGAAUUCCGAGAUGUUGCCUCUGCACGGUUC: 1.32 ratio
UACUACUAUGAUGGUGAUAUUGGAAAUUAUUAUUAUGGCCAGGGUCAUCCCAUGAAGCCUCAUAGAAUCCGGAUGACUCAUAACUUGCUGCUAAAUUAUGGUUUAUACCGAAAAAUGGAA: 0.18 ratio
GAGUCGAGCAAACUUGAAACAAUUCGUUAUCUUGCAGCCUCAGUGUUCACUUGCUUGUGGCAAUAGCUGGGGUUUUAUAUAGAUUCUAAGGAGAACUGACGAUGAUGCUGCCGCUGCUGC: 0.307 ratio
UCUUAACUUAUUCAUUUCUUAUUUUUAUAUAGCUAGAUAAAUAUUGUUAGUCUUAGUCAAUAGCUCACAUUUUUUGAGAAGCAUGCCCUCCCUGUCCAUUUGUCUUAUAACAUGACCCAG: 189 ratio
UUGAAAACUGAUUCAAGUAAGUUUGAGUAUCACAAUGUUAGCUUUCUAAUUCCAUAAAAGUACUUGGUUUUUACAGUUUAUAAUCUGACAUCACCCCCCGUUUAUAAAGAUCAGCUUACU: 0.47 ratio
CACAGAGCAGCACCUACCCCCUCCUCCUUUCCACACCUGCAAACUCUUUUGCCUGGGCUGAAUAUUUAGUGUUAAUUCAUCUCAGCUUUGAGGGCUCCUGUGGCAAAUUCCCGGAUUAAA: 0.522 ratio

Series 2
Target: PABPC1L2, full length, GST fusion (mouse, UniProt A0ABA7IW68)
Method: RNAcompete
Molecule type: RNA
Medium: in vitro
Tested at: 20 nM
Notes: 7-mer, probes averaged, single round
Baseline: mean of 7-mers
Reading: higher = stronger binding
Measurement: 7-mer Z-score
Construct (chain): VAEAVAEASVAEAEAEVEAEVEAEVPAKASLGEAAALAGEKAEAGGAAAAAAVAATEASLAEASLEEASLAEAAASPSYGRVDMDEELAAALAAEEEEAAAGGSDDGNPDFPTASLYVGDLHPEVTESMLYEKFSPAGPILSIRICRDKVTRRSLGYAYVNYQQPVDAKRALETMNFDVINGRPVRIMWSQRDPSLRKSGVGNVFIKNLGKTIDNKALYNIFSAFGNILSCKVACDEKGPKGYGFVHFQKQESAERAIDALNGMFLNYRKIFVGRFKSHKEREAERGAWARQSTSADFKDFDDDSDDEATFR
GUAAAUC: 0.106
GGUCAUC: -0.0718
AGUACAG: -0.124
CACUGGU: -0.137
UCUGUGG: -0.155
GUAUAAC: -0.0989
ACGUGCU: -0.0355
CUCACCU: -0.436

Series 3
Target: Centromere-binding protein 1, full length, N-terminal tag (CBF1, Saccharomyces cerevisiae, UniProt P17106, residues 1-351)
Chain of UniProt P17106 (whole entry, looked up): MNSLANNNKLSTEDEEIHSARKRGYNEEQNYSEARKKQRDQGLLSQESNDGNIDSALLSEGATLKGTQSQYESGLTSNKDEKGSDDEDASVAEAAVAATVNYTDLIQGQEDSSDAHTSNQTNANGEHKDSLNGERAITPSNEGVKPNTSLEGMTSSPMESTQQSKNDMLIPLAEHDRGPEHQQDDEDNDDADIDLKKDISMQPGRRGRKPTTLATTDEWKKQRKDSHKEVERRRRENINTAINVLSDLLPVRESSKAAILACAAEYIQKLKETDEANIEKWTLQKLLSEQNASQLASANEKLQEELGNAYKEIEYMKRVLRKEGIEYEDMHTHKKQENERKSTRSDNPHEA
Method: protein-binding microarray
Molecule type: double-stranded DNA, one strand shown
Medium: in vitro
Tested at: 0.8 µM
Notes: whole 60-bp probe, no competitor
Reading: higher = stronger binding
Measurement: fluorescence intensity
Constant ends, left off below: … GTCTTGATTCGCTTGACGCTGCTG
GAATTTTTTTCAGAAAACGTGAAACTGGGTAACTAG: 692 a.u.
GAACCGCCCAGCTCCCACGTGCATATCACGTGCTAG: 22000 a.u.
CTATATATTTCGTATGTCATGTGGAGTATATATTTC: 1340 a.u.
CTATTTGTTCCTTGGAACCACATGATTTACTCATTC: 1510 a.u.
GAATGCTTTGGCCTACGTGTGCGGTACTCGTTTTAG: 492 a.u.
CTATCAAAGTCTACATGTGACACAAAGAAAACCTTC: 3270 a.u.
GAATAACATTAACAGCTGATGACTTGAAGTATATAG: 612 a.u.
CCTAACTACTATAGCCACGTGGGATAGCTTCGTACA: 4480 a.u.

Further values, each from its own experiment
YFPPVYEMQVKHFQ  enrichment fold change (UDP-N-acetylglucosamine--peptide N-acetylglucosaminyltransferase 110 kDa subunit (OGT, Homo sapiens, UniProt O15294); binding, phage display NGS; peptide; concentration not given; baseline: input library): 5.03

A few entries again (series 2):
GUAUAAC: -0.0989
ACGUGCU: -0.0355
CUCACCU: -0.436
